# Results of several laboratories.
# Every numbered part comes from another study and shows a few of its results, in no order.

# Series 1
# Target: RNA binding protein fox-1 homolog 2, RRM domain, GST-SBP tag (RBFOX2, Homo sapiens, UniProt O43251-10, residues 100-194)
# Technique: RNA Bind-n-Seq
# Molecule type: RNA
# Medium: in vitro
# Concentration: 365 nM
# Notes: natural RNA segment, single round, ends assumed
# Baseline: no-protein control
# Reading: higher = stronger binding
# Target sequence (chain): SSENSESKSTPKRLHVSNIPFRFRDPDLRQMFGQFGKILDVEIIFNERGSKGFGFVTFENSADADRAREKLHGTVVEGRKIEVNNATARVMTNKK
Sequence,RBNS enrichment (R)
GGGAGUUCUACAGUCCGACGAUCUGGAGGUAUGAUAGGUUUAUCACACAGCCUAAGGCAGAUUUUGUUUUGUCUGUACUGACUCUAUCUGCCACACAGAAUGUAUGUAUGUAAUAUUCAGUAAUAAAUGUCAUUGGAAUUCUCGGGUGCCAA,1.44
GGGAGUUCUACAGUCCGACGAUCCCACAGACAUGUUAUUCUUCUGAAAGAGCCACAUUUUGGUUUUAUUUCUUGUCACAUGAUUUCUUUUCUUGAUGGAUGAAAAAUAUGAAAGGAAACUUUUAUAUCUGUUGUGGAAUUCUCGGGUGCCAA,0.497
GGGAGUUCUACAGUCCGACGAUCUCCUGGGUAGGGGUGGGGGUUUGAGUUGAGGACCAAAGUGCCAUAGCGACAUCCAGAACACAAGCCCACCAGGGGUCCAGCCCAGGCUACCCACUCCCCUAGGGUCUCCCUGGAAUUCUCGGGUGCCAA,0.577
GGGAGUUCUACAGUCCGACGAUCCAAUGGGUUCCGUUUCUCCUUUUCCCCUCUGGAUUUUAAAUAAAUAUUUAAAACUGAGGCAAUGGAAUGACACGCCUGUGGUCCCGUGCUGCUUCUCAAAGCUCAGGGGGUGGAAUUCUCGGGUGCCAA,0.273
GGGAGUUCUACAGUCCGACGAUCGUCCGCUCAGCACACGCCUUGUUACGAGCAAGUGCCGGCUGGACCCAAGCCCUGCAUCCCCACAUGCGGGGCAGAGGCCCUUCUCUCCGCCAAAUGUCUACACAGUAUACUGGAAUUCUCGGGUGCCAA,0.34
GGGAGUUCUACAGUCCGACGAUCGUGCAUGACUGUACUUUUCAUUAAAUAACAGAUAAGGGGCUAUAGAAUUUGGGGCUCUGACUGAUCAAAACCUGUGUAUCUGUGUCAAGUUUUAAGACCCCUGAAACAGCUGGAAUUCUCGGGUGCCAA,2.87
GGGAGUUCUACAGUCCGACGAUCGUUAACUGGUAAUCGCCUUUGCUUGCCUGUCGUCAGUGCAGCGAGCUGAGGCACUUGUCCGUUCGUCUUACCAUCUAACCAAACAAAAGACAAAGAAAUUGUCCUCCAACUGGAAUUCUCGGGUGCCAA,0.241
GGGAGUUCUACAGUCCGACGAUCUGCUGCGUGCCCACCAGGAUUUCCUGUGAGGGCCCAGGAAUGAGCAAGGCAUGGUCUGCCACCAGCUGACGGAAAGCAGCCUUCUGUACAACAGAUGGGAGGGUGAAGGGUGGAAUUCUCGGGUGCCAA,0.407
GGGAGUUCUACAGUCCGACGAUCACCCCAGUUAUAUAAUAUAAACUUUGUAAUCUGAGAGAAAAAAUGUAUAGUAAAUCUAAGUCUUGAUUUUUAACUUUCUAUUGUAAAAAAUAAUAAUAUACAGAGUUUAAUGGAAUUCUCGGGUGCCAA,0.79
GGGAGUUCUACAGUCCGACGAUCAAGUUCCCGUGAUUGCAGUAAAAAUAUUUACUAUUCUAAAAAAAUGAGAAUUGAAGACUUAGCCAGUCAGAUAAGUUUUUUCAUGAACCCGUUGUGGAAAUUAUUGGAAUUGGAAUUCUCGGGUGCCAA,0.403
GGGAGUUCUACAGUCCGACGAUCUGAAGAUGAUAUACUAUUUUUGUUAAGCGUGUCUGUAUUUAUGUGUGAGGAGCUGCUGGCUUGCAGUGCGCGUGCACGUGGAGAGCUGGUGCCCGGAGAUUGGACGGCCUUGGAAUUCUCGGGUGCCAA,1.71
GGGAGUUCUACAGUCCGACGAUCUAUCUUUCCUUUUGUUUACAACUGUUAAAAAACCUCAAAAUAGUUCUCUUCAAAAGAAGAGAGAUUCCAAGCAACCCAUCUUUCUUCAGUAUGUAUGUUCUGUACAUACUUGGAAUUCUCGGGUGCCAA,0.319

# Series 2
# Target: Sal-like protein 4, full length isoform B (SALL4, Homo sapiens, UniProt Q9UJQ4-2, residues 1-616)
# Technique: universal PBM
# Molecule type: double-stranded DNA, one strand shown
# Medium: in vitro
# Concentration: not given
# Notes: 8-mer, flanks averaged, mean of replicates
# Reading: higher = stronger binding
# Construct (chain): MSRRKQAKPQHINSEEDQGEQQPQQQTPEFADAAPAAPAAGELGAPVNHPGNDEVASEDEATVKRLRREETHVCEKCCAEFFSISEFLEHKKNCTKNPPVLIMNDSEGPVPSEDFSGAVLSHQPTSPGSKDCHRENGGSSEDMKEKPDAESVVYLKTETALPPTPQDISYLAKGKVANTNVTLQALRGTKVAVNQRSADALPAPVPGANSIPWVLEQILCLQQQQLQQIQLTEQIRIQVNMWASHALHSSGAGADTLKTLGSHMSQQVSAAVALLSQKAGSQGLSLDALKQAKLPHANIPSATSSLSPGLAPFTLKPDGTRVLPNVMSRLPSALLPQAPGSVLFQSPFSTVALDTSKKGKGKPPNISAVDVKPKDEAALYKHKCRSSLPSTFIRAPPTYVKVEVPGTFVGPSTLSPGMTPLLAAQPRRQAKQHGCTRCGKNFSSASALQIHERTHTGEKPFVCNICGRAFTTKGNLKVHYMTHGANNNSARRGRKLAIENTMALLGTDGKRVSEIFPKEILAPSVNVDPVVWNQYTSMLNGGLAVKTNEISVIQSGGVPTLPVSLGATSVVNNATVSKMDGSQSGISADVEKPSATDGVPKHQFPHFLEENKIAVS
Sequence,E-score
CGTTACGA,-0.0302
TTCACAAA,0.111
ACAGCCAA,-0.0237
CTAACGTC,0.00715
CACCAGAG,-0.218
AGTTGCCC,-0.0296
CCACATCC,-0.135
GCCGAACC,-0.191
CCCGGAGA,-0.265
ATTCTCGC,-0.104
AAAGTCCA,-0.0431
CTTCGCTA,0.00769
GCCAGCAA,-0.14
ACCAGCCT,-0.18
AGATTCAG,-0.019
CCGCTCAA,-0.0721
TACGGCCA,-0.208
CAACATTA,0.248
ACCATAGT,0.0754
ACCTTATC,0.134
AGACGAGA,-0.053
AGGATCAC,-0.0888
GGTCGGGA,-0.334

# Series 3
# Target: RING finger protein unkempt homolog, zinc fingers 1-6, GST-SBP tag (UNK, Homo sapiens, UniProt Q9C0B0, residues 30-357)
# Technique: RNA Bind-n-Seq
# Molecule type: RNA
# Medium: in vitro
# Concentration: not given
# Notes: RNA with constant flanks, human-mouse chimeric sites, ends assumed
# Baseline: input RNA pool
# Reading: higher = stronger binding
# Residues (chain): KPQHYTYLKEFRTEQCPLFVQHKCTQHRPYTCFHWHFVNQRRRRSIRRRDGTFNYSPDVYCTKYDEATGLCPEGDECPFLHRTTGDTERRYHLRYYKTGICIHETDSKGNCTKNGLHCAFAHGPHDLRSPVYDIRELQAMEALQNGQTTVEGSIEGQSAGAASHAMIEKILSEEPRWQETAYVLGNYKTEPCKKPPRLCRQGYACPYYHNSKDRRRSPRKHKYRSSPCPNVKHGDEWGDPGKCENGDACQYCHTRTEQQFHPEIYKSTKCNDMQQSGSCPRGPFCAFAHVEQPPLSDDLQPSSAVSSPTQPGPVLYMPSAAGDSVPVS
Sequence,bound/input enrichment
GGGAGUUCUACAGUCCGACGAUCCACACCCUCUUCUGCGGGACCCUCAUCUUGCAGGCCCGGGCCUAUGUGGGACCGCACGUGCUAGCAGUGGUGACCCGCACAGGGUUCUGCACGGCAAAAGGGGGCCUGGUGAGCUCCAUCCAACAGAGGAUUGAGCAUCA,0.0857 ratio
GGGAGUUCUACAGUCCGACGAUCGGCCUGGGACCGUCCUGGCUAGUGCAAAAUAGCGGCAGUGGAGGCUCGAGAGGAAAGUUUGUUAGUGGAGGCAGUGGUAGAGGCCGUAUGUACGCUCCCUUUACUCGAUAGAUGUGUUCUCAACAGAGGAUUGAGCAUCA,0.558 ratio
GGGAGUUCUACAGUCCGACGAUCACCAUUUUCGCGGUUCAAGGUUUUGUGGUAGUUCACUUACGGUAUUAAAUUAUUAUUCUGCUUAGCUUAUAAUAAGGAUAAUUGCAUUUAAAGAGGUUACUGAAUGUUGUUAUUGUUCUUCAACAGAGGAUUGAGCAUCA,2.72 ratio
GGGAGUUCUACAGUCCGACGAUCUCUUUAAAUGCACUACAACCUUUUCUGCAUAUUAUAGCCCUCCCAUAGAUCCACGUUCAAGCUCAAAGAGCAAAGGCUUUGCACGGAGCUCAAACAUCUGAUGAAGAAAGAUUUCUGAGACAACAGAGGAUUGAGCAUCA,0.761 ratio
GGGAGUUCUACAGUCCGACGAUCUUGCUACUGACUCCCUGGGUCAAGUUCCUGUGGGAGUCAUACAGGCAGUGUUUGGACCUUCUUCGAAACAAUUCUAGAGUAGAGCGCCUUUACCAUGAUAUCGCCCAGCAAGCUUUCAAACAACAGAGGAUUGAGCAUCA,0.172 ratio
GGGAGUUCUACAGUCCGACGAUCUAAGUCCAUUUGUAAGCCUUCGCUCAUAAAGUUUUAAAUUCUGGACCAAUAGUGUUUGUUUCCUGAUUAUUGUAUCCAAUACUUUGCGUACUAUGUGACUCACUCUUACUGAUAAUAAAACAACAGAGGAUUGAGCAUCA,0.395 ratio
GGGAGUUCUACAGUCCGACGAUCGCAGGAUCUUCUAAGUACCAGUGGGACAUUAUGAAAUCCCUUGGGCUGUCUGAUGAAGACAUAGUGAAAUUUUCUGAAGCAGAGCACUGGCUUGAUUAUUUCCCACCACUGGCCGUUCAGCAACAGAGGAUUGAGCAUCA,0.361 ratio
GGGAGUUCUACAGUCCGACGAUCUUCAAAGGCUGUGUUAUCUGUGUCAUUUCAUAAGUAACUCUGGGGGAGGGAAAUUCUAACUAGUUUGUUAAUUUUCCCCCAAAUGAAGCCAAAGUGUGUGUUGAAGAACUGAGAAAAAAUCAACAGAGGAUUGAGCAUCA,0.92 ratio
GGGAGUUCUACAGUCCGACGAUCAAUUUCCUGUCAUACUUUUUAGACAUUCACAUCAGACUUACAGAGCAUUGGGCCUCUUUCUAGUUUUGUGUUAUUUCUCAGCUAUGGAUAUGAUCAAAUGAGAACACUGCUUAACUAAUGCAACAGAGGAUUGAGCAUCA,0.377 ratio
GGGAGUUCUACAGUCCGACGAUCAAAGAGAAACUAAAGCAACUAAUAGAGAAGAGGAUUGGCAAAGAGAAAUUUCAUAGAAAACUAGGAUUUAUUAGCAAACAUGAGUUAUAUUCCAGAGGCAUCUCAGAACCCCAGCCAAACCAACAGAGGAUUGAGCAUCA,11.5 ratio
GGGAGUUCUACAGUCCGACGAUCUAAGUCCUGUGCCAGCAAUUUAUCCCAAAAGUUUUAAAUUCUGGACCAAUAGUGUUUGUUUCCUGAUUAUUGUAUCCAAUACUUUGCCUAGUAUGUAACUCAUGCUUACUGAUAAUAAAACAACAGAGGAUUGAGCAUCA,1.15 ratio

# Series 4
# Target: PABPC1L2, full length, GST fusion (mouse, UniProt A0ABA7IW68)
# Technique: RNAcompete
# Molecule type: RNA
# Medium: in vitro
# Concentration: 20 nM
# Notes: 7-mer, probes averaged, single round
# Baseline: mean of 7-mers
# Reading: higher = stronger binding
Sequence,7-mer Z-score
GCGACGC,-0.133
UCGAGAU,-0.26
GGUGCUU,0.0134
GUCGUCU,-0.59
AUUUUCA,-0.391
UACCUAC,-0.171
AACAUCU,0.0642
ACCGCAG,-0.0953
UAUUAAA,0.599
UGGGAAC,0.166
AAUGGCA,0.298
AUGGUUG,-0.104
ACCGCCG,-0.282
CUAGCUA,-0.34
AUUGUAU,-0.104
GCAUGCA,-0.168
GUGUUGU,-0.344
UCGGUCU,-0.311
UUGACCC,-0.237
UUUCUUU,-0.293

# A few entries again (series 2):
Sequence,E-score
CCGCTCAA,-0.0721
TACGGCCA,-0.208
CAACATTA,0.248
ACCATAGT,0.0754
ACCTTATC,0.134
AGACGAGA,-0.053
AGGATCAC,-0.0888
